# Experimental data from different studies.
# Numbered parts are unrelated; each lists some results of a single study.
# Chain of UniProt P54760 (whole entry, looked up): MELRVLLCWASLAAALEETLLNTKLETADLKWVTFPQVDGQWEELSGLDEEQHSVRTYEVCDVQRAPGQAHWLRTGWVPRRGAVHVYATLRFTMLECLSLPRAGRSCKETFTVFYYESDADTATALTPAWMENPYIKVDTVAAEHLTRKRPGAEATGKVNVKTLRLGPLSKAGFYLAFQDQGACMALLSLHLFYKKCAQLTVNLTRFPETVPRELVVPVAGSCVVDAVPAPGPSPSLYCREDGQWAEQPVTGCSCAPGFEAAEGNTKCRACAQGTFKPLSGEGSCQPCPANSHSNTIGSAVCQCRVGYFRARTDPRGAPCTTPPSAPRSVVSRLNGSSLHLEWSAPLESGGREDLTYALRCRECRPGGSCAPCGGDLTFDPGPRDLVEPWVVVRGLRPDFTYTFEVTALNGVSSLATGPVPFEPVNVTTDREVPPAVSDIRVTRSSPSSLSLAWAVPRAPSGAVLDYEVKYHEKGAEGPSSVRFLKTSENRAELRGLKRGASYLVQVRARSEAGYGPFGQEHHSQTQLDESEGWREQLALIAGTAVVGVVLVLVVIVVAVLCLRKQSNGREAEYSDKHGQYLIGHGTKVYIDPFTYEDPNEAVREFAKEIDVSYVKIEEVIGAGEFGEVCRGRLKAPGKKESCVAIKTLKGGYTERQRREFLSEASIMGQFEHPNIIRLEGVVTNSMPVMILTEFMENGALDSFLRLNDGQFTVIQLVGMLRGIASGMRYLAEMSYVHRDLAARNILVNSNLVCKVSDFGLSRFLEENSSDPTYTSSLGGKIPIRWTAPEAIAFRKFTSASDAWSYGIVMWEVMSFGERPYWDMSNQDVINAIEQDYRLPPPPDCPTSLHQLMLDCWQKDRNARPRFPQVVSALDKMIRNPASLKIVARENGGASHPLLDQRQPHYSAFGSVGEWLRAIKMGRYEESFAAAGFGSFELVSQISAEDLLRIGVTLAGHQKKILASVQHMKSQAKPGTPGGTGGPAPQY
# Chain of UniProt Q96PF2 (whole entry, looked up): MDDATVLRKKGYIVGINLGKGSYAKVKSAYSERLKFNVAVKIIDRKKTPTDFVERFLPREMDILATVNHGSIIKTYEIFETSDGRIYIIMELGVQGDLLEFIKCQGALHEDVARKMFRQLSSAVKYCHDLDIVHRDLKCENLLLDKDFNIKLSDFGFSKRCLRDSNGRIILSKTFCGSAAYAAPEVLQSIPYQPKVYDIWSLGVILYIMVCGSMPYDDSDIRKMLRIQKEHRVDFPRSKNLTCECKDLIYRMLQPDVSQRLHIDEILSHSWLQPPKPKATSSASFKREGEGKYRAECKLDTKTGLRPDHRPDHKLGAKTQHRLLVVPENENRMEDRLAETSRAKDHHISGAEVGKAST
# Chain of UniProt O15530 (whole entry, looked up): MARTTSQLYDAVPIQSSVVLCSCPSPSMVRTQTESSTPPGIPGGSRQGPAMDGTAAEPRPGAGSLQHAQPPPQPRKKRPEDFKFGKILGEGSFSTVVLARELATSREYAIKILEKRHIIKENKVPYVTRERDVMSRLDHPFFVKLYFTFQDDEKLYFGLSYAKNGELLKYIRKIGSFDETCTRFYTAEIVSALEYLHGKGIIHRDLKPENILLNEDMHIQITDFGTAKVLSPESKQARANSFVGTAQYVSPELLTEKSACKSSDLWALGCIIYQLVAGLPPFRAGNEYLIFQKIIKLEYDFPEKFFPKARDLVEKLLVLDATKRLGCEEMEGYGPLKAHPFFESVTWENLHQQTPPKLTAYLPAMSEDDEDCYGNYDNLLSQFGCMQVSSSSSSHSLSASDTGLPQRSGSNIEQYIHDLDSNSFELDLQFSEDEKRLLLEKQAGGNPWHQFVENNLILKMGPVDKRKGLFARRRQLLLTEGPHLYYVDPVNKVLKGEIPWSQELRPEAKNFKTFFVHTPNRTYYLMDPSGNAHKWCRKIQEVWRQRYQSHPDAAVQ
# Chain of UniProt Q00534 (whole entry, looked up): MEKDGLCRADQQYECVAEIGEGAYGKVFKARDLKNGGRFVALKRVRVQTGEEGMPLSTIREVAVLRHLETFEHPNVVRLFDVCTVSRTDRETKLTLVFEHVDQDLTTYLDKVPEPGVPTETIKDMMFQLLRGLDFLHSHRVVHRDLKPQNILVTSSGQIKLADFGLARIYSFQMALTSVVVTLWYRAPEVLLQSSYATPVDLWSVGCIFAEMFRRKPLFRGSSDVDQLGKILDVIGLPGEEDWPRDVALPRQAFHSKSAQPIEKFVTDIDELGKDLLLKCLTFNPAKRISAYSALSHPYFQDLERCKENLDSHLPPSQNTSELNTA
# Chain of UniProt P53778 (whole entry, looked up): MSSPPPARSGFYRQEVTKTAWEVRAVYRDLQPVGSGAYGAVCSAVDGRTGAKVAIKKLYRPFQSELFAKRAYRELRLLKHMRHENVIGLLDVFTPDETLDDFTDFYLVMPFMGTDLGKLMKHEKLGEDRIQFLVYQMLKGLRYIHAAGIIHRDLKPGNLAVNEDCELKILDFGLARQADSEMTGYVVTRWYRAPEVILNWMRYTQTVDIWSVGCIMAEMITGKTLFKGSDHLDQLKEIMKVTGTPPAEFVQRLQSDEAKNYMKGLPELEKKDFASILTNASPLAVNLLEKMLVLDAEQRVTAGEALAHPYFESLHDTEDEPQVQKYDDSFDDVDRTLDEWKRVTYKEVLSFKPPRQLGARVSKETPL
# Chain of UniProt Q16644 (whole entry, looked up): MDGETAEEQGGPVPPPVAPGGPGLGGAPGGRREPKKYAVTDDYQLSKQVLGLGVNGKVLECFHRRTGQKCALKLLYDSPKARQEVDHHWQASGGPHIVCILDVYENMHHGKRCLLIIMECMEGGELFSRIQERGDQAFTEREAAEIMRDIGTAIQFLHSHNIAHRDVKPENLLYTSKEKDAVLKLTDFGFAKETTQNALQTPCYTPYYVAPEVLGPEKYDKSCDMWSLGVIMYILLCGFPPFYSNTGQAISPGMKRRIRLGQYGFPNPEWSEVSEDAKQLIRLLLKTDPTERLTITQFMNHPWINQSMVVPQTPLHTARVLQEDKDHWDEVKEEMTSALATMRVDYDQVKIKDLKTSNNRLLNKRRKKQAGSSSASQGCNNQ
# Chain of UniProt P41240 (whole entry, looked up): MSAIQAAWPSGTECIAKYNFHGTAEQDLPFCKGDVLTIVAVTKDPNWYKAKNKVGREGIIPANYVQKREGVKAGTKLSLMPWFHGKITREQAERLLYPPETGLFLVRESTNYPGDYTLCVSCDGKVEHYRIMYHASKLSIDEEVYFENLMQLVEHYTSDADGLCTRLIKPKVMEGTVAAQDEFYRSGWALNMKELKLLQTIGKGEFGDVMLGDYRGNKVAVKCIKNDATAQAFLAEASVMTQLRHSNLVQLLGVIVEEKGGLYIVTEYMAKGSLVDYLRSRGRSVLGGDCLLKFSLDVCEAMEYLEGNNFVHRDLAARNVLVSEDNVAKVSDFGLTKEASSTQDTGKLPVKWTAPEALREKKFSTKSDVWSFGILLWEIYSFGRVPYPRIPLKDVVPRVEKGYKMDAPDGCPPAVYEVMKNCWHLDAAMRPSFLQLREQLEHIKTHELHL
# Chain of UniProt Q96GD4 (whole entry, looked up): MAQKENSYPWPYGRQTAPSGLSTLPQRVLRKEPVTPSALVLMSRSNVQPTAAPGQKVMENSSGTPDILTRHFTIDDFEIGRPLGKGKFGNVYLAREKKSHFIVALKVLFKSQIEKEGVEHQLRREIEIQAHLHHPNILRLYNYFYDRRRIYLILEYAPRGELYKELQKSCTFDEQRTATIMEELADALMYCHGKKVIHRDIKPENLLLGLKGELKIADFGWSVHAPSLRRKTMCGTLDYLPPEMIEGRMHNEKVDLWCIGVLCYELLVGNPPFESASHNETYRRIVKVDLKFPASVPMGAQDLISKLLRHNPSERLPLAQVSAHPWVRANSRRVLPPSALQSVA
# Chain of UniProt Q9UEE5 (whole entry, looked up): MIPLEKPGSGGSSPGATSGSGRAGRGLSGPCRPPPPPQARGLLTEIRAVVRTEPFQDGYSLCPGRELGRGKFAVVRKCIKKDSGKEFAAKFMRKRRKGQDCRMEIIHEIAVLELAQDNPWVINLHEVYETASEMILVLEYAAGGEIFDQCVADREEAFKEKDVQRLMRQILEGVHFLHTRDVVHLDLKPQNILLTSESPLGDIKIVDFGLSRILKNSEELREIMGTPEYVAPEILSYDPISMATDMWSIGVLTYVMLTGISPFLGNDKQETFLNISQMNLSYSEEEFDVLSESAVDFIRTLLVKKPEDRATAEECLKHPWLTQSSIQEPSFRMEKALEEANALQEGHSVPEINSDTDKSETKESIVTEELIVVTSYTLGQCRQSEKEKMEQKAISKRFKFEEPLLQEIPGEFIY
# Chain of UniProt Q04771 (whole entry, looked up): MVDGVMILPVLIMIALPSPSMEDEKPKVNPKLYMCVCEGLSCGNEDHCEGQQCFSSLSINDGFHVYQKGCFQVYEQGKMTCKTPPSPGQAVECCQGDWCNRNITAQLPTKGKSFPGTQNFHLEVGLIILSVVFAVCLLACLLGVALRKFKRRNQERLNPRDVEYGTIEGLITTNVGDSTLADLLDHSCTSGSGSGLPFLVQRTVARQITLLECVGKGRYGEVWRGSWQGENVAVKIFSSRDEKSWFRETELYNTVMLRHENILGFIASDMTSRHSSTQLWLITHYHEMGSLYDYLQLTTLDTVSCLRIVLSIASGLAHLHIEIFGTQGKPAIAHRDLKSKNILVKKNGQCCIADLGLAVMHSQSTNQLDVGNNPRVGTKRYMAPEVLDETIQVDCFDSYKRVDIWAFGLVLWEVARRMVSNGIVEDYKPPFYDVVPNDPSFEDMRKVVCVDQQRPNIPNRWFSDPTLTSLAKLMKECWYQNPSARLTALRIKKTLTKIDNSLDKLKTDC

# Series 1 — effect on: enzyme activity; mode: inhibitor; tested at: 1 µM
# Compound: CC(C)S(=O)(=O)c1ccc2nccc(Nc3ccc4sc(C5CCCC5)nc4c3)c2c1
target,activity vs control [%]
"MAPK12 (Homo sapiens, UniProt P53778)",104
"MAPKAPK3 (Homo sapiens, UniProt Q16644)",92
"TAOK3 (Homo sapiens, UniProt Q9H2K8)",95
"TLK2 (Homo sapiens, UniProt Q86UE8)",84.5
"CDKL2 (Homo sapiens, UniProt Q92772)",89
"TTBK2 (Homo sapiens, UniProt Q6IQ55)",100
"STK17B (Homo sapiens, UniProt O94768)",99.5
"Cyclin-dependent kinase 6, with cyclin D3 (CDK6, Homo sapiens, UniProt Q00534)",91.5
"PIP4K2A (Homo sapiens, UniProt P48426)",99
"TSSK2 (Homo sapiens, UniProt Q96PF2)",86
"CSK (Homo sapiens, UniProt P41240)",78
"Insulin receptor (INSR, Homo sapiens, UniProt P06213)",93

# Series 2 — Compound: Cc1cc(Nc2nc(-c3ccccc3)nc3ccccc23)n[nH]1; effect on: enzyme activity; mode: inhibitor; tested at: 0.5 µM; baseline: control
target,remaining activity
"RPS6KA6 (Homo sapiens, UniProt Q9UK32)",56.2%
"MAP4K4 (Homo sapiens, UniProt O95819)",25.7%
"EPHB4 (Homo sapiens, UniProt P54760)",91.1%
"PDPK1 (Homo sapiens, UniProt O15530)",90.3%
"HIPK4 (Homo sapiens, UniProt Q8NE63)",102%
"MAPKAPK3 (Homo sapiens, UniProt Q16644)",81%
"CAMK2B (Homo sapiens, UniProt Q13554)",97.7%
"BLK (Homo sapiens, UniProt P51451)",56.2%
"WNK3 (Homo sapiens, UniProt Q9BYP7)",74.9%
"AXL (Homo sapiens, UniProt P30530)",101%
"DYRK3 (Homo sapiens, UniProt O43781)",81.9%
"EPHB1 (Homo sapiens, UniProt P54762)",93.1%
"Cyclin-dependent kinase 1, with cyclin B (CDK1, Homo sapiens, UniProt P06493)",76%
"Cyclin-dependent kinase 4, with cyclin D3 (CDK4, Homo sapiens, UniProt P11802)",94.4%
"RPS6KA5 (Homo sapiens, UniProt O75582)",70.5%
"EPHA4 (Homo sapiens, UniProt P54764)",70.7%
"TSSK2 (Homo sapiens, UniProt Q96PF2)",105%
"PHKG1 (Homo sapiens, UniProt Q16816)",71.7%
"Cyclin-dependent kinase 6, with cyclin D3 (CDK6, Homo sapiens, UniProt Q00534)",58.4%
"HIPK2 (Homo sapiens, UniProt Q9H2X6)",101%
"ABL1 (Homo sapiens, UniProt P00519)",75.4%
"STK16 (Homo sapiens, UniProt O75716)",24.7%
"SRMS (Homo sapiens, UniProt Q9H3Y6)",98.7%
"STK17A (Homo sapiens, UniProt Q9UEE5)",81.3%

# Series 3 — effect on: cell-free assay; method: competition with immobilised ligand; tested at: 1 µM
# SMILES: CC(=O)N1CCC(c2ccc(C(=O)NC3=NCCN3)cc2C(F)(F)F)CC1
target,remaining binding
"CASK (Homo sapiens, UniProt O14936)",85%
"OXSR1 (Homo sapiens, UniProt O95747)",100%
"PRKD2 (Homo sapiens, UniProt Q9BZL6)",100%
"WNK2 (Homo sapiens, UniProt Q9Y3S1)",100%
"PDPK1 (Homo sapiens, UniProt O15530)",94%
"STK26 (Homo sapiens, UniProt Q9P289)",89%
"MTOR (Homo sapiens, UniProt P42345)",67%
"GRK7 (Homo sapiens, UniProt Q8WTQ7)",87%
"MST1R (Homo sapiens, UniProt Q04912)",80%
"CSK (Homo sapiens, UniProt P41240)",100%
"Tyrosine-protein kinase ABL1, non-phosphorylated (ABL1, Homo sapiens, UniProt P00519, Q252H)",88%
"TBK1 (Homo sapiens, UniProt Q9UHD2)",98%
"ACVR1 (Homo sapiens, UniProt Q04771)",100%
"CDK16 (Homo sapiens, UniProt Q00536)",84%
"GRK4 (Homo sapiens, UniProt P32298)",100%
"EPHB4 (Homo sapiens, UniProt P54760)",100%
"CDK8 (Homo sapiens, UniProt P49336)",100%
"PAK4 (Homo sapiens, UniProt O96013)",100%
"CLK3 (Homo sapiens, UniProt P49761)",100%
"PIK3CA (Homo sapiens, UniProt P42336, C420R)",93%
"HUNK (Homo sapiens, UniProt P57058)",100%
"MAPK12 (Homo sapiens, UniProt P53778)",55%
"MAP2K3 (Homo sapiens, UniProt P46734)",87%

# Series 4 — effect on: binding; tested at: 1 µM
# SMILES: COc1ccc2[nH]c3c4[nH]c5ccc(OC)cc5c4c4c(c3c2c1)C(=O)NC4=O
target,test,remaining binding
"YES1 (Homo sapiens, UniProt P07947)",competition with immobilised ligand,73%
"PKN2 (Homo sapiens, UniProt Q16513)",,52%
"NEK11 (Homo sapiens, UniProt Q8NG66)",competition with immobilised ligand,100%
"Aurora kinase B (AURKB, Homo sapiens, UniProt Q96GD4)",competition with immobilised ligand,16%
"DYRK2 (Homo sapiens, UniProt Q92630)",,50%
"GRK3 (Homo sapiens, UniProt P35626)",,70%
"STK33 (Homo sapiens, UniProt Q9BYT3)",competition with immobilised ligand,33%
"CLK1 (Homo sapiens, UniProt P49759)",competition with immobilised ligand,80%
"PRPF4B (Homo sapiens, UniProt Q13523)",,97%
"PIK3C3 (Homo sapiens, UniProt Q8NEB9)",,80%

# Repeated from above (series 3):
target,remaining binding
"STK26 (Homo sapiens, UniProt Q9P289)",89%
"MTOR (Homo sapiens, UniProt P42345)",67%
"GRK7 (Homo sapiens, UniProt Q8WTQ7)",87%
"MST1R (Homo sapiens, UniProt Q04912)",80%
"CSK (Homo sapiens, UniProt P41240)",100%
"Tyrosine-protein kinase ABL1, non-phosphorylated (ABL1, Homo sapiens, UniProt P00519, Q252H)",88%
"TBK1 (Homo sapiens, UniProt Q9UHD2)",98%
